Experimental data from different studies.
Compare with care: the assays were run in different laboratories.

Structure (SMILES)	tested on	test	system	conditions	quantity	value
O=C(/C=C/c1ccc(O)c(O)c1/C=C/c1ccc(O)c(O)c1)O[C@H](Cc1ccc(O)c(O)c1)C(=O)O	Severe acute respiratory syndrome coronavirus 2	cytopathic effect	Vero C1008	0.7812 µM	inhibition	0%
CCOc1nc(N)ncc1-c1cn([C@@H]2O[C@](F)(CO)[C@@H](O)[C@H]2O)cn1	Severe acute respiratory syndrome coronavirus 2	viral replication, inhibitor	A549-ACE2	24 h	IC50	> 100 µM
CC(C)OC(=O)[C@H](C)N[P@](=O)(OC[C@H]1O[C@@H](n2ccc(=O)[nH]c2=O)[C@](C)(F)[C@@H]1O)Oc1ccccc1	Severe acute respiratory syndrome coronavirus 2	viral replication, inhibitor	Vero	20 µM	inhibition	40%
COc1nc(N)ncc1-c1cn([C@@H]2O[C@](F)(COC(=O)C(C)C)[C@@H](OC(=O)C(C)C)[C@H]2OC(=O)C(C)C)cn1	Severe acute respiratory syndrome coronavirus 2	viral replication, inhibitor	A549-ACE2	24 h	IC50	28.5 µM
Cc1ccc(NC(=O)c2cc3c(=O)n4cccc(C)c4nc3n2C)cc1Cl	Severe acute respiratory syndrome coronavirus 2	viral replication, inhibitor, qPCR	Vero C1008	1 µM	inhibition	94.4%
Cn1cnc(Cn2c(=O)[nH]/c(=N\c3cc4cn(C)nc4cc3Cl)n(Cc3cc(F)c(F)cc3F)c2=O)n1	Severe acute respiratory syndrome coronavirus 2	viral replication	Vero C1008	51.44 nM	inhibition	15%
C=C[C@@](C)(/C=C/c1ccc(O)cc1)CCC=C(C)C	Severe acute respiratory syndrome coronavirus 2	cytopathic effect, inhibitor	Vero C1008	25 µM	inhibition	0%
CCc1ccc(NC(=O)c2cc3c(=O)n4ccccc4nc3n2C)cc1	Severe acute respiratory syndrome coronavirus 2	viral replication, inhibitor, qPCR	Vero C1008	1 µM	inhibition	94%
O=C(O[C@@H]1Cc2c(O)cc(O)cc2O[C@@H]1c1cc(O)c(O)c(O)c1)c1cc(O)c(O)c(O)c1	Severe acute respiratory syndrome coronavirus 2	cytopathic effect, inhibitor	Vero C1008	1.562 µM	inhibition	0%
CC[C@H](C)[C@H](NC(=O)[C@H](CC(C)C)NC(=O)[C@H](Cc1c[nH]c2ccccc12)NC(=O)[C@H](CCC(N)=O)NC(=O)[C@@H](NC(=O)[C@H](Cc1ccccc1)NC(=O)[C@H](C)NC(=O)[C@H](CCCCNC(=O)COCCOCCNC(=O)COCCOCCNC(=O)CC[C@H](NC(=O)CCCCCCCCCCCCCCCCCCC(=O)O)C(=O)O)NC(=O)[C@H](CCC(N)=O)NC(=O)[C@H](C)NC(=O)[C@@H](NC(=O)[C@H](CCCCN)NC(=O)[C@H](CC(=O)O)NC(=O)[C@H](CC(C)C)NC(=O)C(C)(C)NC(=O)[C@@H](NC(=O)[C@H](CO)NC(=O)[C@H](Cc1ccc(O)cc1)NC(=O)[C@H](CC(=O)O)NC(=O)[C@H](CO)NC(=O)[C@@H](NC(=O)[C@H](Cc1ccccc1)NC(=O)[C@@H](NC(=O)CNC(=O)[C@H](CCC(=O)O)NC(=O)C(C)(C)NC(=O)[C@@H](N)Cc1ccc(O)cc1)[C@@H](C)O)[C@@H](C)O)[C@@H](C)CC)[C@@H](C)CC)C(C)C)C(=O)N[C@@H](C)C(=O)NCC(=O)NCC(=O)N1CCC[C@H]1C(=O)N[C@@H](CO)C(=O)N[C@@H](CO)C(=O)NCC(=O)N[C@@H](C)C(=O)N1CCC[C@H]1C(=O)N1CCC[C@H]1C(=O)N1CCC[C@H]1C(=O)N[C@@H](CO)C(N)=O	–	–	healthy human	1.0 mg, single ascending dose	feeling hot	0%
Cn1c(C(=O)Nc2ccc3c(c2)OCCO3)cc2c(=O)n3ccccc3nc21	Severe acute respiratory syndrome coronavirus 2	viral replication, inhibitor, qPCR	Vero C1008	10 µM	inhibition	96.4%
CCOc1nc(N)ncc1-c1cn([C@@H]2O[C@](F)(CO[P@@](=O)(N[C@@H](C)C(=O)OC(C)C)Oc3ccccc3)[C@@H](OC(=O)C(C)C)[C@H]2OC(=O)C(C)C)cn1	Severe acute respiratory syndrome coronavirus 2	viral replication, inhibitor	A549-ACE2	24 h	IC50	11.6 µM
CC(C)=CCc1c(O)ccc(C(=O)/C=C/c2ccc(O)cc2)c1O	Severe acute respiratory syndrome coronavirus 2	cytopathic effect, inhibitor	Vero C1008	1.562 µM	inhibition	0%
COc1ncc(-c2cn([C@@H]3O[C@](F)(CO)[C@@H](O)[C@H]3O)cn2)cn1	Severe acute respiratory syndrome coronavirus 2	viral replication, inhibitor	A549-ACE2	24 h	IC50	> 100 µM
CC(=O)c1cccc(NC(=O)c2cc3c(=O)n4ccccc4nc3n2C)c1	Severe acute respiratory syndrome coronavirus 2	viral replication, inhibitor, qPCR	Vero C1008	10 µM	inhibition	97.1%

For quick reference, copied from above:
Structure (SMILES)	tested on	test	system	conditions	quantity	value
COc1nc(N)ncc1-c1cn([C@@H]2O[C@](F)(COC(=O)C(C)C)[C@@H](OC(=O)C(C)C)[C@H]2OC(=O)C(C)C)cn1	Severe acute respiratory syndrome coronavirus 2	viral replication, inhibitor	A549-ACE2	24 h	IC50	28.5 µM
